Published values from different studies.
Each numbered part is a random draw from the data of one study; scales do not carry over between parts. Substitutions count along the parent as printed.

Study 1
Target: Histone acetyltransferase KAT6A, both winged helices, GST fusion (KAT6A, Homo sapiens, UniProt Q92794, residues 1-181)
Technique: protein binding microarray
Molecule type: double-stranded DNA, one strand shown
Medium: in vitro
Concentration: not given
Setting: 8-mer, flanks averaged, mean of 2 arrays, mostly near background
Baseline: not given
Reading: higher = stronger binding
Construct (chain): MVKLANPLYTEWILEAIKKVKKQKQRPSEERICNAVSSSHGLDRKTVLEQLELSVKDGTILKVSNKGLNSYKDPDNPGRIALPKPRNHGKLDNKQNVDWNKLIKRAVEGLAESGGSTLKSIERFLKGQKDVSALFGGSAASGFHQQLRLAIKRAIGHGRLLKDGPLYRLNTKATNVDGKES
Strand | E-score
GCCTCCCA | -0.218
AATCACCC | -0.173
CGCGCGCC | 0.394
ATCCCCAT | -0.0929
CTGTAATA | 0.0633
GATCCCAC | -0.18
GCACATTA | 0.0293
ACACCCTC | -0.227
AGGCTACG | -0.0686
ACACCGTC | 0.16
AGGGGCCC | -0.0832
GACGCCTC | -0.031
ACCAAGCC | 0.0286
AAGCGCTG | 0.328
GGGTGGCA | -0.164
ATTCCGAC | 0.18
GTTGGTGA | 0.0269
AAAAATAG | -0.0506
TACTTGAA | -0.155
ACGACATA | -0.167

Study 2
Target: RING finger protein unkempt homolog, zinc fingers 1-6, GST-SBP tag (UNK, Homo sapiens, UniProt Q9C0B0, residues 30-357)
Technique: RNA Bind-n-Seq
Molecule type: RNA
Medium: in vitro
Concentration: not given
Setting: RNA with constant flanks, human and mouse sites, ends assumed
Baseline: input RNA pool
Reading: higher = stronger binding
All sequences stand within: GGGAGUUCUACAGUCCGACGAUC … CAACAGAGGAUUGAGCAUCA
Construct (chain): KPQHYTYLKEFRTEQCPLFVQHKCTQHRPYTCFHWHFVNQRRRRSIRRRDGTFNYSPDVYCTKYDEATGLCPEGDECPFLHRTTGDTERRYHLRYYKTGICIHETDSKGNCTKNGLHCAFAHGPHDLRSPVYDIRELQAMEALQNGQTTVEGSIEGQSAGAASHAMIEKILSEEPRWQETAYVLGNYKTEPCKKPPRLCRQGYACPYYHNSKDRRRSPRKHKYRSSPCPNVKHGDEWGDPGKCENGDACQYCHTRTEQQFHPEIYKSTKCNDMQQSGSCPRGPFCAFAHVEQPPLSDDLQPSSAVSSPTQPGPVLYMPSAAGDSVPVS
Strand | bound/input enrichment [ratio]
AGGCCUUUGCCACAACCAAGAGAGGCUUGGGGAUUAUCUGACUCCUUCCAACCUGCUCUGCCACAGAGAGCAGCACAAACUACUCCAGCAUCCCAUUUGAAUGUAAGCCAGUAUAACACU | 0.141
UUGCAUACACACACCCCCACCCCAGAGUGUUCUCAGUAUGUCAGAGAAAGUGCCACAGCAUUAGGACGGGAGCUUGGAGAACGUUUUCUAGAAAAGGGUUAGCUUCCUGUUGGCAUGAAA | 0.744
UGCAGUUCAAAUCCUUGCCCCAGUGAGGGAAUCCCUAGGGAAGUGGGUGAUGGGACUAGAGUAGAUCCACUUCCUCCAGUUCAUUCGGCCUCUAAAGAAAUCACAGAGUCCAAGGCACAA | 0.192
AAGAGCACCUCAGGAAGCACUGGGGCGGGUGACACUCGUCUCGGCGACCAAGGGCAGUGCUAGCAUCUGUCCGCAUUGCCUAUGCUCCGUUCAAUCCUGAACUAAAGCGUACACUUCUUC | 0.0376
ACGAUGACGACCUGUCUGUUCGACACUGCACUAAUGCUUACAUGUUAGUCUACAUCAGGGAAUCAAAACUGAGUGAAGUUUUACAGGCGGUCACCGACCAUGAUAUUCCUCAGCAGUUGG | 0.14
GAAAAGAAUGUGCUGUUUUCACAUCUUGAUGAUAAUGAGAGAAGUGAUAUUUUUGAUGCCAUGUUUUCGGUCUCCUUUAUCGCAGGAGAGACUGUGAUUCAGCAAGGUGAUGAAGGGGAU | 0.219
UAAAUGCCCUGAGAAAAGCAUAAGAUUAAAAACAAUCCAUGGGCUAUUUGUGUUACUGCUAUAGAAAGGUUUUUUAAAAAGCUAUCUUUCAUAUUGAAUUUUUGAAUUCUUAAAAAGCCU | 0.365
AAGCUGCUGUGUGGCCUGCUGUCCGAUCGCCUGCACAUCAGCCCGGACCGGGUCUACAUCAACUAUUACGACAUGAACGCUGCCAACGUGGGCUGGAACGGUUCCACCUUCGCUUGAGUC | 0.0531

Study 3
Target: Sal-like protein 4, full length isoform A (SALL4, Homo sapiens, UniProt Q9UJQ4, residues 1-1053)
UniProt Q9UJQ4, sequence (whole entry, looked up): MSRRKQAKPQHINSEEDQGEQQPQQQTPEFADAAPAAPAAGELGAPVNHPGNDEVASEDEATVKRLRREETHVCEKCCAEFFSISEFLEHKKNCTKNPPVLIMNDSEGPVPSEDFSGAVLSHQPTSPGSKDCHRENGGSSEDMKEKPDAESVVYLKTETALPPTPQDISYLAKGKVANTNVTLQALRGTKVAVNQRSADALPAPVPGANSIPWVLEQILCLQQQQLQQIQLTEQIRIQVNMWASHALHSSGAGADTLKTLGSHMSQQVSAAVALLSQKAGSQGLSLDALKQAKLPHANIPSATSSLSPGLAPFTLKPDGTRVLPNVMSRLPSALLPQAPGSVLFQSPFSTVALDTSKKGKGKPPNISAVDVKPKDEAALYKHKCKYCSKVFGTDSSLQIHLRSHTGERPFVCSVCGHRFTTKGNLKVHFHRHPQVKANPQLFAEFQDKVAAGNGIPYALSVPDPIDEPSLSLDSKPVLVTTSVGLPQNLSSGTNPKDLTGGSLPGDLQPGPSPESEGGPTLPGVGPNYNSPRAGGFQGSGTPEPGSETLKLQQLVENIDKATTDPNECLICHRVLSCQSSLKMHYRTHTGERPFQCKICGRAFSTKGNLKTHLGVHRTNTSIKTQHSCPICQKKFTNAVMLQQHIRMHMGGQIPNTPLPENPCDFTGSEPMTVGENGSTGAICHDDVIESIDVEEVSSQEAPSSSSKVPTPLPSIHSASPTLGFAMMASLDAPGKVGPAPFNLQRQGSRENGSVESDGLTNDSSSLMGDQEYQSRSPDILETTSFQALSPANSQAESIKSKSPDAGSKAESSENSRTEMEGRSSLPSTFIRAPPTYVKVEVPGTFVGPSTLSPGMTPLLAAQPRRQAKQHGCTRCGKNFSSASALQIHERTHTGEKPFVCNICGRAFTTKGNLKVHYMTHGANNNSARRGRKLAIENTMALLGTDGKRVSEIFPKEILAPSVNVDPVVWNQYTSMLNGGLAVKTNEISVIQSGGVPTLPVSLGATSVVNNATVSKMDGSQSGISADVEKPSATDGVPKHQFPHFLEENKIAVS
Technique: universal PBM
Molecule type: double-stranded DNA, one strand shown
Medium: in vitro
Concentration: 600 nM
Setting: 8-mer, flanks averaged, mean of replicates
Reading: higher = stronger binding
Strand | E-score
ATGGATCC | 0.0506
CAACACAG | -0.108
ACACGTAC | 0.0574
ATCGGGTG | -0.201
AAATAAGA | 0.328
ACTTATTC | 0.236
CGTAGGGA | -0.0122
ACCCCAGC | -0.164
AAGGGCGC | -0.226
TAAGGGTA | 0.0386
CTACAGCA | -0.0937
AATCGATA | 0.2
GCAGCAAC | -0.0955
ACGGACTC | -0.229
ACTATCCG | -0.0597
ACAGCAGG | 0.0129
CAAGGAGG | -0.0566
TAAGTCCA | 0.0863
AGACTGTA | 0.11
CTGGTAGC | -0.202
ATCTTCGA | 0.163
AATTTGGT | 0.196
ACCGCCTC | -0.224
GTGCGTTA | 0.07
ACAGGTGG | -0.168

Study 4
Target: RNA binding protein fox-1 homolog 2, RRM domain, GST-SBP tag (RBFOX2, Homo sapiens, UniProt O43251-10, residues 100-194)
Technique: RNA Bind-n-Seq
Molecule type: RNA
Medium: in vitro
Concentration: 365 nM
Setting: natural RNA segment, single round, ends assumed
Baseline: no-protein control
Reading: higher = stronger binding
All sequences stand within: GGGAGUUCUACAGUCCGACGAUC … UGGAAUUCUCGGGUGCCAA
Construct (chain): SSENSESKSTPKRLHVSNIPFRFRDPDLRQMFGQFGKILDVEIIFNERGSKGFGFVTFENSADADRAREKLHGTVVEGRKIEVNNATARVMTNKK
Strand | RBNS enrichment (R)
CCAGAACAGGCCACUCAUUUAGAAUUCUAGUGUUUCAAAACACUUUUGUGUGUUGUAUGGUCAAUAACAUUUUUCAUUACUGAUGGUGUCAUUCACCCAUUAGGUAAACA | 0.223
AGCAGUUUAAACCUCCUGACCCACUUAACCUAUCUCUUUUGUUUAUUCCCUGAAGUAUGUAAUCCUUUGUACAGCUUUUCUAUCUUACAUAUAAAAAGGAGACAUGAGAA | 0.477
GAGGACCAAAGCAAUUCUUGUUUUAGUUUCUUUGCGAAGCCUGCUCCUCCUUCCCUUCAUAAGGACUUUUUUUGUCUUUCUUUAACGCCCAGGCUUCGUCUUAUUUCUAC | 0.379
AAUAUUCAAACACUUUUGUGGCAUACAAAGUAAAAAAAAAAAGUGUAUCUGAGAAACUAAACAUGUAUUAAAUGUGCUUUUUAAAUAAAAGCUCAUAACACAACUAACCA | 0.887
UGGGGAUUUUAAGCUUUCUGUUAAAUACUUGCAGAAAAAAUAGCAAGUACGAUUUGACAGUAGUACAAUAACCUGUGCCCAAAACACAAGAAAUACAGAGUAAAGCGAAA | 0.323
UUUCGGUCAGGCCAUCUCCAGCAGCAUGUCUCUGCUGUGUGGAUGGAGGCCAAGGUCAGAAAGAUGCCCCGAGAAGCUCCAGCUUUGCUUUCUGCCCAGCCCAUCUUGCC | 4.81
GAGUCUGUCACACUCUCUUGGGCCAGCCCCAGCACCUCAUGCAGAGGGUGGGGUACUGGAGUUAGAUCUCUAAGCCCCUCCUGGAACCCUCAUUUUCCCCACUCUCAAUG | 1.79
UUGGACUCUGCACUCCCUCUCCUCUUCAGGGGCCAGACUUGGCAGCAUGUGCACCAGGUUGGUGUUCACCAGCUCAUGUCUUCCCCACAUCUCUUCUUGCCAGUAAGCAG | 0.654

Study 5
Target: CCNB2, cyclin fold, Cln2 fusion (human)
Technique: yeast growth competition, sequencing
Medium: yeast
Setting: weak parent motif
Baseline: not given
Reading: higher = stronger binding
Parent: CABLES2 docking peptide (human); ICAKRSLCAAFSV
Change | normalised enrichment score
IAAKRSLCAAFSV [C2A] | 0.00781
ICAKRSLCAAASV [F11A] | 0.565
ICAARSLCAAFSV [K4A] | -0.242
ICAKRSLCAAFAV [S12A] | 0.335
ICAKRSACAAFSV [L7A] | -0.102

For quick reference, copied from above (study 4):
Strand | RBNS enrichment (R)
CCAGAACAGGCCACUCAUUUAGAAUUCUAGUGUUUCAAAACACUUUUGUGUGUUGUAUGGUCAAUAACAUUUUUCAUUACUGAUGGUGUCAUUCACCCAUUAGGUAAACA | 0.223
AGCAGUUUAAACCUCCUGACCCACUUAACCUAUCUCUUUUGUUUAUUCCCUGAAGUAUGUAAUCCUUUGUACAGCUUUUCUAUCUUACAUAUAAAAAGGAGACAUGAGAA | 0.477
GAGGACCAAAGCAAUUCUUGUUUUAGUUUCUUUGCGAAGCCUGCUCCUCCUUCCCUUCAUAAGGACUUUUUUUGUCUUUCUUUAACGCCCAGGCUUCGUCUUAUUUCUAC | 0.379
AAUAUUCAAACACUUUUGUGGCAUACAAAGUAAAAAAAAAAAGUGUAUCUGAGAAACUAAACAUGUAUUAAAUGUGCUUUUUAAAUAAAAGCUCAUAACACAACUAACCA | 0.887
UGGGGAUUUUAAGCUUUCUGUUAAAUACUUGCAGAAAAAAUAGCAAGUACGAUUUGACAGUAGUACAAUAACCUGUGCCCAAAACACAAGAAAUACAGAGUAAAGCGAAA | 0.323
UUUCGGUCAGGCCAUCUCCAGCAGCAUGUCUCUGCUGUGUGGAUGGAGGCCAAGGUCAGAAAGAUGCCCCGAGAAGCUCCAGCUUUGCUUUCUGCCCAGCCCAUCUUGCC | 4.81
GAGUCUGUCACACUCUCUUGGGCCAGCCCCAGCACCUCAUGCAGAGGGUGGGGUACUGGAGUUAGAUCUCUAAGCCCCUCCUGGAACCCUCAUUUUCCCCACUCUCAAUG | 1.79
UUGGACUCUGCACUCCCUCUCCUCUUCAGGGGCCAGACUUGGCAGCAUGUGCACCAGGUUGGUGUUCACCAGCUCAUGUCUUCCCCACAUCUCUUCUUGCCAGUAAGCAG | 0.654
